Assay results of several laboratories.
A part holds a random share of what one study measured.

Sample 1
Target: Centromere-binding protein 1, full length, N-terminal tag (CBF1, Saccharomyces cerevisiae, UniProt P17106, residues 1-351)
Sequence of UniProt P17106 (whole entry, looked up): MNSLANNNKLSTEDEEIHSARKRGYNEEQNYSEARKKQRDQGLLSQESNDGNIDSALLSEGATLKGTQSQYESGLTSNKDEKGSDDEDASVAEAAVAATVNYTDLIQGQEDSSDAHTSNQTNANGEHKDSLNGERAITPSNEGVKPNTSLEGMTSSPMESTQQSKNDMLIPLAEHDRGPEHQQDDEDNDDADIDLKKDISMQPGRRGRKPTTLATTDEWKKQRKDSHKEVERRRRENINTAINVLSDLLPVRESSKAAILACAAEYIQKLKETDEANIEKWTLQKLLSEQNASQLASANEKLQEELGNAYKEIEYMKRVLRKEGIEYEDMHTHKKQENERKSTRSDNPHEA
Technique: protein-binding microarray
Form: double-stranded DNA, one strand shown
Matrix: in vitro
Concentration: 0.8 µM
Setting: whole 60-bp probe, no competitor
Direction: higher = stronger binding
Shared flanks, not repeated: … GTCTTGATTCGCTTGACGCTGCTG
Oligonucleotide	fluorescence intensity
GAACGGGAATTACAGCTCGTGTTGAGTGATGATTAG	582 a.u.
GAATTAGTTTGAACTCACGTGTTGCTGCTGAATTAG	3980 a.u.
CTACTGTACATACTACACGTTATAGCGTTAACATTC	579 a.u.
GAAATAACACGTCCACGTGGAACTATTAAATTGTAG	4090 a.u.
CTAAAATTCAAGGTGCTGATGTTCAGTAAAGCCTTC	551 a.u.
CTATAATACCGCGGGCACATGAGATGTTAACAATTC	607 a.u.

Sample 2
Target: TAR DNA-binding protein 43, full length, His tag (TARDBP, Homo sapiens, UniProt Q13148, residues 1-414)
Technique: RNA Bind-n-Seq
Form: RNA
Matrix: in vitro
Concentration: 20 nM
Setting: 6-mer, flanks averaged, single round
With: 150 mM LiCl
Reference: input library
Direction: higher = stronger binding
Oligonucleotide	6-mer enrichment (R)
AAGUGU	1.29
UGCUUA	0.973
UAUGCG	1.1
GACGCG	0.97
CGCUGG	0.929
ACGACG	0.808
AGAGAU	0.919
UUACUU	0.994

Sample 3
Target: RNA binding protein fox-1 homolog 2, RRM domain, GST-SBP tag (RBFOX2, Homo sapiens, UniProt O43251-10, residues 100-194)
Technique: RNA Bind-n-Seq
Form: RNA
Matrix: in vitro
Concentration: 365 nM
Setting: natural RNA segment, single round, ends assumed
Reference: no-protein control
Direction: higher = stronger binding
Shared flanks, not repeated: GGGAGUUCUACAGUCCGACGAUC … UGGAAUUCUCGGGUGCCAA
Residues (chain): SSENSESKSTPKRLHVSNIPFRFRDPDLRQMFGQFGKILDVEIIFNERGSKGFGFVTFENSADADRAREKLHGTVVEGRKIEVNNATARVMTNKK
Oligonucleotide	RBNS enrichment (R)
CCCCUGCUGCUGCAGUGGUGUGAGUCGUUUCACGGCUGAUGUCCCUCGGGGGAUUAAAGGAUCUAAAGAGAAAAUGGCACCUGGUUGUCUUCGUGCUGUGUCUCAUGGGU	0.269
AGUAAAUCGUAAAGAGAAAGGAAUUUAAGGGGUUGGAGAGAUGACUCAGUGGCUAAGAGAAUUGGCUGUUCUUCCAGAGGACCCAGGUUUGAUUCCUAGCAGCACAUAGA	1.62
AUUGUGGCACCCACAGCAAGCAGUUGCCUUACCAGUGAAAAAGGUGCACUGAGGUAACAUCUAAAACAGAGAUGUGGUUCUUAAUGUUUAACAGAACAGUUCUAAUCCUG	0.612
UACAGAUUUAAUACAGUUUAUUUUUAAAGAUAGAUCCUUUUAUAGGUGAGAAAAAAACAAUCUGGAAGAAAAAAACCACACAAAGACAUUGAUUCAGCCUGUUUGGCGUU	0.577
AGAUGCAUAAAUCCUUAGAUACCUGGGUUUUUUAAUAGGUUUAGGUUUGGGUAUUGUGUUUCUGGUCUUUUAACUCAAAAUUAAGGUUUGAGCUUUAAUAGGACUAAAUU	0.354
GGCAGCACCUUGGAGACCAAGCAGCCAUCCCAGCGAAGACUUACCUGCCUGGCCCCACCACCUGGAGUGUUUCAGAGAAUCACUUGGUGGCAGUCACGUGGCUGACUCCU	0.273
AUAGCUGAGCAGGAGCCACAUGGAUUGAUUGUAUCCACUCACCAUUGACGAUGGCAUUGAGCGUAGCUAGCUUAUUUCCAUCACUACGUGUUUUUGAGCUUGCUCUUACG	0.503
AAGAGUGGUUUUAACAUGGGACAGAAAAUAGUCUUUUCCUAUUCUCUCAAUCCAUUUUUAGGUAGAAAGGGUCUUAAGUGAUACUUAUGCUUUGGCAUCCAGAGCAUAAG	0.212

Other studies, line by line
Substance	target	test	test system	setting	scale	measurement	result
PhoQ, residues 284 288 289 292 302 303 AAQSYM	PhoP, residues 12 14 15 18 19 STWGI (Escherichia coli, UniProt P23836)	Sort-seq, item: YFP reporter	E. coli	PhoQ-PhoP variant library, with: 10 µM Mg2+	reference: high Mg2+ state, higher = stronger signaling	fold induction	1.4

Some of these lines once more (sample 3):
Oligonucleotide	RBNS enrichment (R)
AGAUGCAUAAAUCCUUAGAUACCUGGGUUUUUUAAUAGGUUUAGGUUUGGGUAUUGUGUUUCUGGUCUUUUAACUCAAAAUUAAGGUUUGAGCUUUAAUAGGACUAAAUU	0.354
GGCAGCACCUUGGAGACCAAGCAGCCAUCCCAGCGAAGACUUACCUGCCUGGCCCCACCACCUGGAGUGUUUCAGAGAAUCACUUGGUGGCAGUCACGUGGCUGACUCCU	0.273
AUAGCUGAGCAGGAGCCACAUGGAUUGAUUGUAUCCACUCACCAUUGACGAUGGCAUUGAGCGUAGCUAGCUUAUUUCCAUCACUACGUGUUUUUGAGCUUGCUCUUACG	0.503
AAGAGUGGUUUUAACAUGGGACAGAAAAUAGUCUUUUCCUAUUCUCUCAAUCCAUUUUUAGGUAGAAAGGGUCUUAAGUGAUACUUAUGCUUUGGCAUCCAGAGCAUAAG	0.212
